Assay results gathered from unrelated publications.
Lines come from different studies, so protocols differ. Values joined by “and” are separate records of one study, mostly repeats; a detail may differ. Numbers after ± are the reported error.
CASP4: Caspase-4 (CASP4, Homo sapiens, UniProt P49662)
Chain of UniProt Q9NSD7 (whole entry, looked up): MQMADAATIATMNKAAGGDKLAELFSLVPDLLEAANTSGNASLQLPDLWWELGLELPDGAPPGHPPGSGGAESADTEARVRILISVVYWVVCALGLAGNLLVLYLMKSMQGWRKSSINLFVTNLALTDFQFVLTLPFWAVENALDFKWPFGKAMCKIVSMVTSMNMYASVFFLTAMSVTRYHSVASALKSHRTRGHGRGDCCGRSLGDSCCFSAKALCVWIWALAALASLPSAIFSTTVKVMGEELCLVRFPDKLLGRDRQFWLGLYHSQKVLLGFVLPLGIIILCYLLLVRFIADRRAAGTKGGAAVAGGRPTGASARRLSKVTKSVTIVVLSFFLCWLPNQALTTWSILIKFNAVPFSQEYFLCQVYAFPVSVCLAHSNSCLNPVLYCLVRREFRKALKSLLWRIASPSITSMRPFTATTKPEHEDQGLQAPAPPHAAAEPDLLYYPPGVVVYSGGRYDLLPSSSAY
Chain of UniProt P49662 (whole entry, looked up): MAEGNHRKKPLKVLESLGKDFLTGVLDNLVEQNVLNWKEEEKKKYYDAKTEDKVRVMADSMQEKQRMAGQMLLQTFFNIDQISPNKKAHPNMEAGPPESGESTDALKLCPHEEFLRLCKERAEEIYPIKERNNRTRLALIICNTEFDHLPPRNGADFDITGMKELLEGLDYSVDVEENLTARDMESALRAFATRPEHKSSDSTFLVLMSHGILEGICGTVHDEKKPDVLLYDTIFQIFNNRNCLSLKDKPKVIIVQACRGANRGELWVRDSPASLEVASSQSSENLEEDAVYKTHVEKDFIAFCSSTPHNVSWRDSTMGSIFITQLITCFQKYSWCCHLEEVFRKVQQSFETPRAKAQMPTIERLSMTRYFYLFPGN
Chain of UniProt Q9Y490 (whole entry, looked up): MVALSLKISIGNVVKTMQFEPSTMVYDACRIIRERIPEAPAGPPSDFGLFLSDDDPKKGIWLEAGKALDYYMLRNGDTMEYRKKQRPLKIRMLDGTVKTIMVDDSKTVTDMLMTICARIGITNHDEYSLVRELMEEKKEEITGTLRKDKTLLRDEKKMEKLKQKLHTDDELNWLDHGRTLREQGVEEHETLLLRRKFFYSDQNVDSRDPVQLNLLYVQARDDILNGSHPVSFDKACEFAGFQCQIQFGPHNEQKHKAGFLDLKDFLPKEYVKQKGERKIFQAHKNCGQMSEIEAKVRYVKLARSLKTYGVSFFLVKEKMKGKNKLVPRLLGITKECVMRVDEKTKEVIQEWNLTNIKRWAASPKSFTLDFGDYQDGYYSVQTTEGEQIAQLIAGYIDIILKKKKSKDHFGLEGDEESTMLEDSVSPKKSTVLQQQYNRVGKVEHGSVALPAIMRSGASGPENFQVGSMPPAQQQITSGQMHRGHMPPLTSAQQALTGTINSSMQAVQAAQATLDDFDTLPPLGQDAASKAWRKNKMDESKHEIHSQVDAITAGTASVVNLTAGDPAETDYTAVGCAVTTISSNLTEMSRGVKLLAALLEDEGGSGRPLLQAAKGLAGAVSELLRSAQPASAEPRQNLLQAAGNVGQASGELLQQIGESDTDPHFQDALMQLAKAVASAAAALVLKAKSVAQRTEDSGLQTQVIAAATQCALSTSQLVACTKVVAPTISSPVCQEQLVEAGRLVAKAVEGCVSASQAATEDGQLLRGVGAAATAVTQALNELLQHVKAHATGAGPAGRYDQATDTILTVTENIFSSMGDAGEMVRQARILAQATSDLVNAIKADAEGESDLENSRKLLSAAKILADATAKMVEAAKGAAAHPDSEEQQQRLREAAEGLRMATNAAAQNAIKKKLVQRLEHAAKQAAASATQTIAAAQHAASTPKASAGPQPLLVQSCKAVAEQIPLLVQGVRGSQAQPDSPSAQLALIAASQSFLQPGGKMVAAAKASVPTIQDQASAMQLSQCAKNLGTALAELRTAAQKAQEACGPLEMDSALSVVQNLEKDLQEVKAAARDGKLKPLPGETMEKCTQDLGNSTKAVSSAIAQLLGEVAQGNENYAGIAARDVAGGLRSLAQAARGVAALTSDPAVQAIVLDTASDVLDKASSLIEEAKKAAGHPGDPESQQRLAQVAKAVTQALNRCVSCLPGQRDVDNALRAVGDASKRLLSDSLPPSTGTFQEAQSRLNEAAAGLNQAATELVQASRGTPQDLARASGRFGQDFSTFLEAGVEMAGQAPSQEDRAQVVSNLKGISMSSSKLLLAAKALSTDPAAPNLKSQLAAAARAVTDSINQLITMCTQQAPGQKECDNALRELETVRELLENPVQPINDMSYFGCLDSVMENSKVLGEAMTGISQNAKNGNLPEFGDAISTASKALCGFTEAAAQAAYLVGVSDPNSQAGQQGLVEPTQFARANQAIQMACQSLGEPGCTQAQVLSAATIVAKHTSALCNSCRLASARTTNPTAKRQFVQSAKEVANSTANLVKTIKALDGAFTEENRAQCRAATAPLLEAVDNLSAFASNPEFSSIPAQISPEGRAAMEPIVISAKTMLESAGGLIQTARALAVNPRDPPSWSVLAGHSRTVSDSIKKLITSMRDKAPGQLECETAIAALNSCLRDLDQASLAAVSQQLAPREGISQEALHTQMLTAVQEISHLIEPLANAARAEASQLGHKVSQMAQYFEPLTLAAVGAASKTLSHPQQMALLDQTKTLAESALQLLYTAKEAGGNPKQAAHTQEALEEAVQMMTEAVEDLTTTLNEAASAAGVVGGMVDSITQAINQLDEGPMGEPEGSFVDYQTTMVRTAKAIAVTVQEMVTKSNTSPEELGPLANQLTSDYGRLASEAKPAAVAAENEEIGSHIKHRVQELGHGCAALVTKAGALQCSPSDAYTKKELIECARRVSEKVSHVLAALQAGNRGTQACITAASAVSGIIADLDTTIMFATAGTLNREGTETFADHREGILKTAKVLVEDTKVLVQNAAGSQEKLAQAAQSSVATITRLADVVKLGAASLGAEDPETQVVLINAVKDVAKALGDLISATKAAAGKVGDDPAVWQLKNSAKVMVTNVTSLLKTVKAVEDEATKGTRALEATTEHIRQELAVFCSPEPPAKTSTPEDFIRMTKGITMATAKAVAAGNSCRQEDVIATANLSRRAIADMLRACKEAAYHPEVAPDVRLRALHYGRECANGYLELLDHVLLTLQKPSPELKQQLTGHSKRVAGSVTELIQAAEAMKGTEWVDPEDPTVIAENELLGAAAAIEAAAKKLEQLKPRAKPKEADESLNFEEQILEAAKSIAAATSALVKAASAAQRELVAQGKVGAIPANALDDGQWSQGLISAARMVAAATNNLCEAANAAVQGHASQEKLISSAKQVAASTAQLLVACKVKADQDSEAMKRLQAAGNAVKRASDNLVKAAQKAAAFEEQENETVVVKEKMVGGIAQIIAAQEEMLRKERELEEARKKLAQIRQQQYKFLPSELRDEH
Chain of UniProt P55211 (whole entry, looked up): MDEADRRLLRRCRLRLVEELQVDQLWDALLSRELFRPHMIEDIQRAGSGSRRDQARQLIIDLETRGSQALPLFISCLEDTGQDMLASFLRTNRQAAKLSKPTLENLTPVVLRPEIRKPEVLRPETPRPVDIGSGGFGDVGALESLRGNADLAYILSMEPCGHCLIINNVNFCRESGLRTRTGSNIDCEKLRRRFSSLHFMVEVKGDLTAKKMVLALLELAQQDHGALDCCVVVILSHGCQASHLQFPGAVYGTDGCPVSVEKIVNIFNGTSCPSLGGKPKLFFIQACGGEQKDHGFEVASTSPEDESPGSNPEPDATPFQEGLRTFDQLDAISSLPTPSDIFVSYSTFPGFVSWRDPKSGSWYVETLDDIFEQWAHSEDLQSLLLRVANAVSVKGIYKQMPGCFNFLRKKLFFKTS
Chain of UniProt Q3UFF7 (whole entry, looked up): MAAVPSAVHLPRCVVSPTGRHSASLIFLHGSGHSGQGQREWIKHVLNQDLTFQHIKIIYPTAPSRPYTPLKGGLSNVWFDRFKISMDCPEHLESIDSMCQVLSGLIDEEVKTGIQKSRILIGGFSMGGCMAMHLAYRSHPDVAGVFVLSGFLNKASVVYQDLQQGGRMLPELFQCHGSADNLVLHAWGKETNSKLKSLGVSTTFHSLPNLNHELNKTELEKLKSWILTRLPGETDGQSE
Chain of UniProt P45974 (whole entry, looked up): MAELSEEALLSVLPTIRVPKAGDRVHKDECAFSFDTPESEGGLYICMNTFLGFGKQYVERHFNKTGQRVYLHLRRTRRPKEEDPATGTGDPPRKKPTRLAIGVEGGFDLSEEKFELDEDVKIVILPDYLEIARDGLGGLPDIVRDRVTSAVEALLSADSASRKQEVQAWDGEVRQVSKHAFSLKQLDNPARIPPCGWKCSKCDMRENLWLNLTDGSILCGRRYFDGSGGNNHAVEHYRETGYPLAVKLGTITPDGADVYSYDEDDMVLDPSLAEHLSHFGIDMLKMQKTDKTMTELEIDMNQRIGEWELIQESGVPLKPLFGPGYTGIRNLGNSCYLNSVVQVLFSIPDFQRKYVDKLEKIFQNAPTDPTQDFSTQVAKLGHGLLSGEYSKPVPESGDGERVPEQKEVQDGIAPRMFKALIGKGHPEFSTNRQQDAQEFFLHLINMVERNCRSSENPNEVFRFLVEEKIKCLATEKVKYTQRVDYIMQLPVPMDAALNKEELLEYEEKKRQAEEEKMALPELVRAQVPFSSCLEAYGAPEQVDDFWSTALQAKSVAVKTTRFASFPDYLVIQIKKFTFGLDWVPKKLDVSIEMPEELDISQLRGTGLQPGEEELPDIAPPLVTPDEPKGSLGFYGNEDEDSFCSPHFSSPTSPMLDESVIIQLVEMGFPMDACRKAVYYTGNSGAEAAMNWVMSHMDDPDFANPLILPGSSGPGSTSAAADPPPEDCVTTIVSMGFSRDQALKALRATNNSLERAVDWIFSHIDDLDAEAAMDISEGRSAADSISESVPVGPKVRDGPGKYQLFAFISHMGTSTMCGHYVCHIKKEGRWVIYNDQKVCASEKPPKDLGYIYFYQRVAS
Chain of UniProt P0ABQ4 (whole entry, looked up): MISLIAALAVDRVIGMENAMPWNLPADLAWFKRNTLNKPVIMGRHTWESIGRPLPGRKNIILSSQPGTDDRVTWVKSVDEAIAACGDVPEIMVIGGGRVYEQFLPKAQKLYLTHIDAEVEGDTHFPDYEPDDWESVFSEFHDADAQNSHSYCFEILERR

SMILES = CC1CCCc2nc(N)nc(N)c21 (centres unmarked); target = Dihydrofolate reductase (folA, Escherichia coli, UniProt P0ABQ4); conditions = concentration not given, ternary complex with NADPH; measurement = exchange rate kex; value = 390 ± 47.3 s⁻¹
SMILES = CC(C=CC=C(C)C=CC1=C(C)CCCC1(C)C)=CC=O; target = Rhodopsin (RHO, Homo sapiens, UniProt P08100, E181K); test = ER retention, immunostaining co-localization, refers to: opsin with calnexin; system = COS-7 transfected E181K; conditions = 20.00 µM; measurement = Pearson correlation coefficient; value = 0.47
SMILES = CC(C)[C@H]1CC[C@]2(C)C[C@H]3C(=C4C[C@@H](O)[C@H](C)[C@]5(O)CC[C@@]3(C)[C@]45C)C[C@@H]12; target = Protein S100-A8/S100A9 (Homo sapiens, UniProt P05109+P06702); test = binding, surface plasmon resonance; conditions = 1 K; measurement = association rate constant; value = 119 M⁻¹ s⁻¹
SMILES = CC(=O)N[C@@H](CC(C)C)C(=O)N[C@@H](CCC(=O)O)C(=O)N[C@H](C(=O)N[C@@H](CC(=O)O)C(=O)COC(=O)c1c(C)cccc1C)[C@@H](C)O; target = CASP4; test = enzyme activity, inhibitor; measurement = kinact/KI; value = 37400 M⁻¹ s⁻¹
SMILES = CCCCCC=CC=C1C(=O)C=CC1CC=CCCCC(=O)O (centres unmarked); target = WD repeat domain phosphoinositide-interacting protein 3 (WDR45B, Homo sapiens, UniProt Q5MNZ6); test = competitive isoTOP-ABPP, refers to: WDR45L cysteine peptide; system = proteome, soluble, MDA-MB-231; conditions = 100 µM, added: iodoacetamide probe; scale = baseline: DMSO over compound-treated, higher = stronger cysteine blockade; measurement = isoTOP-ABPP competition ratio; value = 6.7
SMILES = CC(=O)N[C@@H](CCC(C)C)C(=O)N[C@H](C(=O)N[C@@H](CO)C(=O)N[C@@H](CC(=O)O)C(=O)COC(=O)c1c(C)cccc1C)C(C)(C)C; target = CASP4; test = enzyme activity, inhibitor; measurement = kinact/KI; value = 31600 M⁻¹ s⁻¹
SMILES = CC(C)C[C@H](NC(=O)[C@@H](NC(=O)[C@H](Cc1ccccc1)NC(=O)c1ccc(CN2CCOCC2)cc1)C(C)C)C(=O)N[C@@H](CCCCN(C)C1CC2CCC1C2)C(=O)N[C@@H](CO)C(N)=O (some centres unmarked); target = Chromobox protein homolog 8 (Homo sapiens, UniProt Q9HC52); test = TR-FRET displacement; scale = baseline: IC50 CBX7 over IC50 CBX8; measurement = selectivity ratio; value = 70
SMILES = CC[C@H](C)[C@H](NC(=O)[C@H](Cc1ccccc1)NC(=O)[C@H](CCC(=O)O)NC(=O)[C@H](CCCCN)NC(=O)[C@H](C)NC(=O)[C@H](C)NC(=O)[C@H](CCC(N)=O)NC(=O)CNC(=O)[C@H](CCC(=O)O)NC(=O)[C@H](CC(C)C)NC(=O)[C@H](Cc1ccc(O)cc1)NC(=O)[C@H]1CNC[C@@H]1NC(=O)[C@H](CO)NC(=O)C(C)(C)NC(=O)[C@H](CC(=O)O)NC(=O)[C@H](CO)NC(=O)[C@@H](NC(=O)[C@H](Cc1ccccc1)NC(=O)[C@@H](NC(=O)CNC(=O)[C@H](CCC(=O)O)NC(=O)[C@H](C)NC(=O)[C@@H](N)Cc1c[nH]cn1)[C@@H](C)O)[C@@H](C)O)C(=O)N[C@@H](C)C(=O)N[C@@H](Cc1c[nH]c2ccccc12)C(=O)N[C@@H](CC(C)C)C(=O)N[C@H](C(=O)N[C@@H](CCCCN)C(=O)NCC(=O)N[C@@H](CCCNC(=N)N)C(N)=O)C(C)C; target = Glucagon-like peptide 1 receptor (GLP1R, Homo sapiens, UniProt P43220); test = β-arrestin-1 recruitment, agonist, BRET; scale = baseline: GLP-1; measurement = efficacy; value = 48 ± 2%
SMILES = Nc1nc(SCc2ccc(Cl)cc2)nn1S(=O)(=O)c1cccc2ccccc12; target = Lysophospholipase-like protein 1 (Mus musculus, UniProt Q3UFF7); test = enzyme activity, activator, gel-based ABPP; system = purified protein; conditions = concentration not given, added: FP-rhodamine; scale = baseline: DMSO; measurement = probe labeling increase; value = 2.5 fold
SMILES = CC(=O)N[C@@H](CCCNC(=N)N)C(=O)N[C@H](C(=O)N[C@@H](CCCCN)C(=O)N[C@@H](CO)C(=O)N[C@@H](CCCNC(=N)N)C(=O)N[C@H](C(=O)N[C@@H](Cc1c[nH]c2ccccc12)C(=O)N[C@@H](C)C(=O)N[C@H](C(N)=O)C(C)C)[C@@H](C)OP(=O)(O)O)[C@@H](C)O; target = 14-3-3 protein epsilon (Homo sapiens, UniProt P62258); test = binding, SPR; measurement = kon; value = 830000 M⁻¹ s⁻¹
SMILES = CC(=O)N[C@@H](CC(=O)O)C(=O)N[C@@H](CO)C(=O)N[C@@H](C)C(=O)N[C@@H](CC(=O)O)C(=O)COC(=O)c1c(C)cccc1C; target = CASP4; test = enzyme activity, inhibitor; measurement = kinact/KI; value = 9600 M⁻¹ s⁻¹
SMILES = CC[C@H](C)[C@@H]1NC(=O)[C@H](Cc2ccccc2)NC(=O)[C@H](CCC(=O)O)NC(=O)[C@H](CCCNC(=N)N)NC(=O)CNC(=O)[C@@H](NC(=O)[C@H](CC(C)C)NC(=O)[C@H](CCCNC(=N)N)NC(=O)[C@@H](NC(=O)CNC(=O)[C@H](Cc2ccc(O)cc2)NC(=O)[C@@H]2CCCN2C(=O)[C@H](C)NC(=O)[C@H](C)NC(=O)[C@@H](N)CCCNC(=N)N)C(C)C)CSSC[C@@H]2NC(=O)[C@@H](NC(=O)[C@H](CO)NC(=O)[C@H](CO)NC(=O)[C@H](CO)NC(=O)[C@H](CC(C)C)NC(=O)CNC(=O)[C@H](C)NC(=O)[C@H](CC(C)C)NC(=O)[C@@H](NC(=O)[C@@H](N)CC(=O)O)C(C)C)CSSC[C@H](NC(=O)CNC(=O)[C@H](Cc3c[nH]c4ccccc34)NC(=O)[C@H](CCCCN)NC2=O)C(=O)N[C@@H](CO)C(=O)N[C@@H](CCCCN)C(=O)N[C@@H](CO)C(=O)N[C@@H](CCC(=O)O)C(=O)N[C@@H]([C@@H](C)CC)C(=O)N[C@@H](CO)C(=O)N[C@@H](CO)C(=O)N[C@@H](CC(C)C)C(=O)N[C@H](C(=O)O)CSSC[C@@H](C(=O)NCC(=O)NCC(=O)N[C@@H](CO)C(=O)N[C@@H](CCCNC(=N)N)C(=O)N[C@@H](Cc2c[nH]c3ccccc23)C(=O)O)NC(=O)[C@H]([C@@H](C)O)NC(=O)[C@H](Cc2ccccc2)NC(=O)[C@H]([C@@H](C)CC)NC(=O)[C@H](C(C)C)NC(=O)[C@H](C)NC(=O)[C@H](CCCNC(=N)N)NC1=O; target = Relaxin-3 receptor 1 (RXFP3, Homo sapiens, UniProt Q9NSD7); test = agonist; conditions = 1.95 nM, wild-type receptor; measurement = cAMP accumulation; value = 34.4% and 33.1% and 30.8%
SMILES = CC1=CC(=O)CN(S(=O)(=O)c2ccc(C)cc2)C1; target = Ubiquitin carboxyl-terminal hydrolase 5 (USP5, Homo sapiens, UniProt P45974); test = enzyme activity, inhibitor; conditions = 17 µM; measurement = inhibition; value = 7%
SMILES = CC[C@H](C)[C@H](NC(=O)[C@H](CCC(=O)O)NC(=O)[C@H](Cc1ccc(I)cc1)NC(C)=O)C(=O)N[C@@H](CC(=O)O)C(=O)COC(=O)c1c(C)cccc1C; target = CASP4; test = enzyme activity, inhibitor; measurement = kinact/KI; value = 12800 M⁻¹ s⁻¹
SMILES = Cc1ccc(C(=O)O)c(/N=C2\NC(=O)/C(=C/c3cccc4ccccc34)S2)c1; target = Dihydroorotate dehydrogenase (quinone), mitochondrial (DHODH, Homo sapiens, UniProt Q02127); test = enzyme activity, inhibitor, DCIP reduction; conditions = 0.1 µM; scale = higher = more activity; measurement = reaction rate; value = -24.4 a.u.
SMILES = C=CC(=O)N1[C@H](c2ccc3c(c2)OCO3)c2[nH]c3ccccc3c2C[C@H]1C(=O)N1CCOCC1; target = Hepatocyte nuclear factor 3-alpha (FOXA1, Homo sapiens, UniProt P55317); test = ChIP-seq; system = 22Rv1; conditions = 20 µM, 3 h; measurement = sites with changed binding; value = ~10%
SMILES = COc1ccc(C2(C(=O)N3CCC(Nc4nc5ccccc5c(=O)[nH]4)CC3)CC2)cc1; target = MRGPRD (Homo sapiens, UniProt Q8TDS7, F242A); test = miniGq recruitment, agonist, BRET; system = HEK293T; conditions = F242A mutant; measurement = Hill slope; value = 2.3
SMILES = C=CC(=O)N1CCCC(n2c(=O)c3ncccc3n(Cc3ccc(Oc4ccccc4)cc3)c2=O)C1 (centres unmarked); target = Talin-1 (TLN1, Homo sapiens, UniProt Q9Y490); test = thermal proteome profiling; system = cell proteome; conditions = treated; measurement = melting temperature; value = 45.9 °C and 52.2 °C
SMILES = CC(=O)N[C@@H](CCCCN)C(=O)N[C@H](C(=O)N[C@@H](Cc1ccc(O)cc1)C(=O)N[C@@H](Cc1ccc(O)cc1)C(=O)N[C@@H](CCCNC(=N)N)C(=O)N[C@@H](Cc1ccc(O)cc1)C(=O)N[C@@H](CC(N)=O)C(=O)NCC(=O)N[C@@H](CCCCN)C(=O)N[C@H](C(=O)N[C@@H](Cc1c[nH]c2ccccc12)C(=O)N[C@@H](Cc1c[nH]c2ccccc12)C(=O)N[C@@H](CCCNC(=N)N)C(=O)O)C(C)C)C(C)C; target = Insulin (INS, Bos taurus, UniProt P01317); test = circular dichroism; conditions = 0 min, initial stage, added: INS 350 µM; measurement = β-strand content; value = 28%
SMILES = CC(C)[C@@H]1NC(=O)[C@H](Cc2ccccc2)NC(=O)CSC[C@@H](C(N)=O)NC(=O)[C@H](CCC(=O)O)NC(=O)[C@H](CO)NC(=O)[C@H](Cc2c[nH]c3cccc(Cl)c23)NC(=O)[C@H](C2CCCCC2)NC(=O)[C@H](C(C)C)NC(=O)[C@H](Cc2ccc(O)cc2)NC(=O)[C@H](CC(=O)O)NC(=O)[C@H](Cc2c[nH]c3ccccc23)NC(=O)[C@H](Cc2ccc(N)nc2)NC(=O)[C@H](Cc2c[nH]c3ccc(Cl)cc23)NC(=O)[C@H](CCC(=O)O)NC1=O; target = Interleukin-1 receptor-like 2 (IL1RL2, Homo sapiens, UniProt Q9HB29); test = reporter gene (SEAP), inhibitor, HEK-Blue IL-36R reporter; system = HEK-Blue IL-36R cells; conditions = 3.7 µM, 6 h, added: IL-36γ 0.3 ng/mL; measurement = remaining activity; value = 1.8%
SMILES = CC(=O)N[C@H](C(=O)N[C@@H](CCCNC(N)=O)C(=O)N[C@@H](CCO)C(=O)N[C@@H](CC(=O)O)C(=O)COC(=O)c1c(C)cccc1C)C1CCCCC1; target = Caspase-9 (CASP9, Homo sapiens, UniProt P55211); test = enzyme activity, inhibitor; measurement = kinact/KI; value = 16200 M⁻¹ s⁻¹
SMILES = CN(C)c1ccc2c(c1)C(=O)N(c1ccc(S(N)(=O)=O)cc1)C2=O; target = Carbonic anhydrase 2 (CA2, Homo sapiens, UniProt P00918); test = binding; conditions = 2 µM, pH 7.2; scale = baseline: without protein; measurement = fluorescence turn-on; value = 2.2 ± 0.03 fold
SMILES = CCCCCC(O)/C=C/C=O (centres unmarked); target = MIF4G domain-containing protein (MIF4GD, Homo sapiens, UniProt A9UHW6); test = competitive isoTOP-ABPP, refers to: MIF4GD cysteine peptide; system = Ramos soluble proteome; conditions = 100 µM, added: iodoacetamide probe; scale = baseline: DMSO over compound-treated, higher = stronger cysteine blockade; measurement = isoTOP-ABPP competition ratio; value = 1.4

Repeated from above:
SMILES = CC(=O)N[C@@H](CC(=O)O)C(=O)N[C@@H](CO)C(=O)N[C@@H](C)C(=O)N[C@@H](CC(=O)O)C(=O)COC(=O)c1c(C)cccc1C; target = CASP4; test = enzyme activity, inhibitor; measurement = kinact/KI; value = 9600 M⁻¹ s⁻¹
SMILES = CC[C@H](C)[C@@H]1NC(=O)[C@H](Cc2ccccc2)NC(=O)[C@H](CCC(=O)O)NC(=O)[C@H](CCCNC(=N)N)NC(=O)CNC(=O)[C@@H](NC(=O)[C@H](CC(C)C)NC(=O)[C@H](CCCNC(=N)N)NC(=O)[C@@H](NC(=O)CNC(=O)[C@H](Cc2ccc(O)cc2)NC(=O)[C@@H]2CCCN2C(=O)[C@H](C)NC(=O)[C@H](C)NC(=O)[C@@H](N)CCCNC(=N)N)C(C)C)CSSC[C@@H]2NC(=O)[C@@H](NC(=O)[C@H](CO)NC(=O)[C@H](CO)NC(=O)[C@H](CO)NC(=O)[C@H](CC(C)C)NC(=O)CNC(=O)[C@H](C)NC(=O)[C@H](CC(C)C)NC(=O)[C@@H](NC(=O)[C@@H](N)CC(=O)O)C(C)C)CSSC[C@H](NC(=O)CNC(=O)[C@H](Cc3c[nH]c4ccccc34)NC(=O)[C@H](CCCCN)NC2=O)C(=O)N[C@@H](CO)C(=O)N[C@@H](CCCCN)C(=O)N[C@@H](CO)C(=O)N[C@@H](CCC(=O)O)C(=O)N[C@@H]([C@@H](C)CC)C(=O)N[C@@H](CO)C(=O)N[C@@H](CO)C(=O)N[C@@H](CC(C)C)C(=O)N[C@H](C(=O)O)CSSC[C@@H](C(=O)NCC(=O)NCC(=O)N[C@@H](CO)C(=O)N[C@@H](CCCNC(=N)N)C(=O)N[C@@H](Cc2c[nH]c3ccccc23)C(=O)O)NC(=O)[C@H]([C@@H](C)O)NC(=O)[C@H](Cc2ccccc2)NC(=O)[C@H]([C@@H](C)CC)NC(=O)[C@H](C(C)C)NC(=O)[C@H](C)NC(=O)[C@H](CCCNC(=N)N)NC1=O; target = Relaxin-3 receptor 1 (RXFP3, Homo sapiens, UniProt Q9NSD7); test = agonist; conditions = 1.95 nM, wild-type receptor; measurement = cAMP accumulation; value = 34.4% and 33.1% and 30.8%
SMILES = CC1=CC(=O)CN(S(=O)(=O)c2ccc(C)cc2)C1; target = Ubiquitin carboxyl-terminal hydrolase 5 (USP5, Homo sapiens, UniProt P45974); test = enzyme activity, inhibitor; conditions = 17 µM; measurement = inhibition; value = 7%
SMILES = CC[C@H](C)[C@H](NC(=O)[C@H](CCC(=O)O)NC(=O)[C@H](Cc1ccc(I)cc1)NC(C)=O)C(=O)N[C@@H](CC(=O)O)C(=O)COC(=O)c1c(C)cccc1C; target = CASP4; test = enzyme activity, inhibitor; measurement = kinact/KI; value = 12800 M⁻¹ s⁻¹
